Assay results of several laboratories.
Numbered parts are unrelated; each lists some results of a single study.

Series 1
Target: Histone acetyltransferase KAT6A, winged helix 2, GST fusion (KAT6A, Homo sapiens, UniProt Q92794, residues 85-181)
Technique: protein binding microarray
Molecule type: double-stranded DNA, one strand shown
Matrix: in vitro
Tested at: not given
Notes: 8-mer, flanks averaged, mean of 2 arrays, mostly near background
Relative to: not given
Reading: higher = stronger binding
Measurement: E-score
Target sequence (chain): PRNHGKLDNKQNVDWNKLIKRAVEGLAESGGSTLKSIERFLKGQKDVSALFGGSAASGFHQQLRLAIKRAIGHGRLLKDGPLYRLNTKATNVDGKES
CTGGTGTC: 0.123
CGTTCCAG: -0.0651
ATGTCCCC: -9e-05

Series 2
Target: Interferon regulatory factor 5, full length, phosphomimetic (IRF5, Homo sapiens, UniProt Q13568-2, residues 1-514, K96S/S451D/S453D/S456D/S462D)
Technique: protein-binding microarray
Molecule type: double-stranded DNA, one strand shown
Matrix: in vitro
Tested at: 250 nM
Notes: 60-bp whole probe
Together with: salmon DNA 0.4 mg/ml
Relative to: random background probes
Reading: higher = stronger binding
Measurement: log fluorescence
GCCTAGCACTTAGGTTTCCTTCACCTTTAGTGCTAGGTCTTGATTCGCTTGACGCTGCTG: 1.01 z-score
GCCTAGCACGACGGTTCCCTTTTCCTCACGTGCTAGGTCTTGATTCGCTTGACGCTGCTG: 0.399 z-score
GCCTAGCACTTAGATCTCAGTTTCGACTAGTGCTAGGTCTTGATTCGCTTGACGCTGCTG: 7.37 z-score

Series 3
Target: Sal-like protein 4, full length isoform B (SALL4, Homo sapiens, UniProt Q9UJQ4-2, residues 1-616)
Technique: universal PBM
Molecule type: double-stranded DNA, one strand shown
Matrix: in vitro
Tested at: not given
Notes: 8-mer, flanks averaged, mean of replicates
Reading: higher = stronger binding
Measurement: E-score
CTAGCTGC: -0.341
GCAGGATA: -0.0524
CCCTACCG: -0.155

Further values, each from its own experiment
PhoQ, residues 284 288 289 292 302 303 SCKMEA — fold induction (PhoP, residues 12 14 15 18 19 NMSFL (Escherichia coli, UniProt P23836); Sort-seq, measured: YFP reporter; E. coli; PhoQ-PhoP variant library, together with: 10 µM Mg2+; relative to: high Mg2+ state, higher = stronger signaling): 15.4

Repeated from above (series 3):
CCCTACCG: -0.155
